Experimental data of several laboratories.
Protocols differ between the studies behind these lines. Numbers after ± are the reported error.
HCRTR1: Orexin/Hypocretin receptor type 1 (HCRTR1, Homo sapiens, UniProt O43613)
Chain of UniProt O43613 (whole entry, looked up): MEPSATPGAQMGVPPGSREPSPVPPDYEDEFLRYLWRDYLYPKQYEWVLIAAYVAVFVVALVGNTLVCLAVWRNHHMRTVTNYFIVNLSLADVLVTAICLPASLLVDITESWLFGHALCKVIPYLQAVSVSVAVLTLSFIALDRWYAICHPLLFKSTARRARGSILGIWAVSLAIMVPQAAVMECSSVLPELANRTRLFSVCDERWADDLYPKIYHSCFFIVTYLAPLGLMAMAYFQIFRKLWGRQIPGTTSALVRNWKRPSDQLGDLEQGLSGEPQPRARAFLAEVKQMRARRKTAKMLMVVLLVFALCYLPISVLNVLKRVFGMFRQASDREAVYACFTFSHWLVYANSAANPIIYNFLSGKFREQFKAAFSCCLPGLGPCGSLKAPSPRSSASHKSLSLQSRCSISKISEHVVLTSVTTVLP
Chain of UniProt P47712 (whole entry, looked up): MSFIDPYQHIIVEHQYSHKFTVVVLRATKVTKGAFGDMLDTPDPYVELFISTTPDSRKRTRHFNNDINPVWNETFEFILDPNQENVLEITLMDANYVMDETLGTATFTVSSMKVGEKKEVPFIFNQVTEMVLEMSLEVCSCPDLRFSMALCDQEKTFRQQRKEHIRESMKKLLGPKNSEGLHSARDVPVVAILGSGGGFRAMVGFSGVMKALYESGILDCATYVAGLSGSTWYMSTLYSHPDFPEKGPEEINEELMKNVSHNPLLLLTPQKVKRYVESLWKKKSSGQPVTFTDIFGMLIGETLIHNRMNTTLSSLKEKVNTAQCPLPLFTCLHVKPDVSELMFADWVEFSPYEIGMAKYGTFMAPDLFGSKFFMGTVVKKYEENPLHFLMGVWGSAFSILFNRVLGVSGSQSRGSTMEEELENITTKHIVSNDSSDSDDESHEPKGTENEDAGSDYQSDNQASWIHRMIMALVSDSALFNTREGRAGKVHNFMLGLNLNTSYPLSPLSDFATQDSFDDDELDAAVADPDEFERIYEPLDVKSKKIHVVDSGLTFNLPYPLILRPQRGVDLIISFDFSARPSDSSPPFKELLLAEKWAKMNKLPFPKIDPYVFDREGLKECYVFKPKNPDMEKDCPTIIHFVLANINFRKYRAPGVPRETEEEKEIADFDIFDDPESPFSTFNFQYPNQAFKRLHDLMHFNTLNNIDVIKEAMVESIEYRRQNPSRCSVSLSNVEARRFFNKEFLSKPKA

For `CCCCCCCC1c2cc(OC)c(OC)cc2CCN1CC(=O)NCc1ccccc1` (stereo not shown), the Kb was > 10000 nM (HCRTR1; calcium signal, antagonist, fluorescence).
`pneumocandin I` has an MIC of 0.1 µg/mL (Candida glabrata; broth microdilution, resazurin; ATCC 2001; 24 h, 35 °C).
The MIC of `CCOC(=O)c1c(N)csc1-c1cn(-c2ccccc2)nc1-c1ccc(C)cc1` is reported as 0.124 ± 0.5 µg/mL (Acinetobacter baumannii; broth microdilution; clinical urinary isolate; compound gamma-irradiated 20 kGy).
For `CC1(C)SC2C(NC(=O)C(NC(=O)C3=C(O)C(c4ccccc4)NC3=O)c3ccccc3)C(=O)N2C1C(=O)O` (stereo not shown), the MIC was 50 µg/mL (Acinetobacter baumannii; microbial growth, broth dilution; ATCC19606).
With `CCCCCC(=O)N[C@@H](CCN)C(=O)N[C@H](C(=O)N[C@@H](CCN)C(=O)N[C@H](Cc1ccccc1)C(=O)N[C@@H](CC(C)C)C(=O)N[C@@H](CCN)C(=O)N[C@@H](C(=O)N[C@@H](CC(C)C)C(=O)N[C@@H](CO)C(N)=O)C(C)C)[C@@H](C)CC` the MIC was 0.0078 to 0.0156 µg/mL (Acinetobacter baumannii; checkerboard, measured: rifampicin; ATCC 19606; sensitization to antibiotics, with: compound at 2 µg/mL).
`CC1(C)SC2C(NC(=O)C(NC(=O)C3=C(O)C(Cc4ccc([N+](=O)[O-])cc4)NC3=O)c3ccccc3)C(=O)N2C1C(=O)O` (stereo not shown) has an MIC of 100 µg/mL (Escherichia coli; broth microdilution; BW25113, Mueller-Hinton broth).
The MIC of `pneumocandin B0` is reported as 12.8 µg/mL (Candida parapsilosis; broth microdilution, resazurin; ATCC 90018; 24 h, 35 °C).
`CC1(C)SC2C(NC(=O)C(NC(=O)C3=C(O)CNC3=O)c3ccccc3)C(=O)N2C1C(=O)O` (stereo not shown) gave an MIC of 50 µg/mL (Acinetobacter baumannii; microbial growth, broth dilution; ATCC19606).
`KTLTGKTITLE` gave an MIC of > 100 µM (Bacillus megaterium; peptide, 899, Luria broth; overnight, 37 °C).
The MIC of `CC1(C)SC2C(NC(=O)C(NC(=O)C3=C(O)C(Cc4ccsc4)NC3=O)c3ccccc3)C(=O)N2C1C(=O)O` (stereo not shown) is reported as 50 µg/mL (Acinetobacter baumannii; microbial growth, broth dilution; ATCC19606).
For `C=C(C)[C@@H]1CC[C@]2(C)CC[C@]3(C)[C@H](CC[C@@H]4[C@@]5(C)CC[C@H](O)C(C)(C)[C@@H]5CC[C@]43C)[C@@H]12`, the MIC was 500 µg/mL (Lodderomyces parapsilosis; microbial growth, broth dilution; ATCC22019; 48 h).
`CCN(CC)c1cc(CC2c3cc(OC)c(OC)cc3CCN2CC(=O)NCc2ccccc2)ccc1OC` (stereo not shown) gave a Kb of 208 nM (HCRTR1; calcium signal, antagonist, fluorescence).
`CCCCCCCC(=O)N[C@@H](CCN)C(=O)N[C@@H](CCN)C(=O)N[C@@H](CCN)C(=O)N[C@H](Cc1ccccc1)C(=O)N[C@@H](CC(C)C)C(=O)N[C@@H](CCN)C(=O)N[C@@H](C(=O)N[C@@H](CC(C)C)C(=O)N[C@@H](CCN)C(N)=O)C(C)C` has an MIC of 0.0313 to 0.0625 µg/mL (Acinetobacter baumannii; checkerboard, measured: rifampicin; ATCC 19606; sensitization to antibiotics, with: compound at 4 µg/mL).
`Cc1c(NC(=O)CC2=NC(=O)CS2)c(=O)n(-c2ccccc2)n1C` has an MIC of 0.45 µg/mL (Acinetobacter baumannii; microbial growth, broth dilution).
`CC1(C)S[C@@H]2[C@H](NC(=O)[C@H](N)c3ccccc3)C(=O)N2[C@H]1C(=O)O` has an MIC of 0.62 µg/mL (Lactobacillus acidophilus; broth microdilution; ATCC 4356, MRS medium; 24 h, 37 °C).
The MIC of `pneumocandin K` is reported as 0.1 µg/mL (Candida glabrata; broth microdilution, resazurin; ATCC 2001; 24 h, 35 °C).
The MIC of `O[C@@](Cn1cnnn1)(c1ccc(F)cc1F)C(F)(F)c1ccc(-c2ccc(OCC(F)(F)F)cc2)cn1` is reported as 0.06 µg/mL (Acanthamoeba polyphaga; cell growth, resazurin; 96 h, 28 °C).
The MIC of `pneumocandin A0` is reported as 12.8 µg/mL (Candida parapsilosis; broth microdilution, resazurin; ATCC 90018; 24 h, 35 °C).
`CN1CC(O)=C(C(=O)NC(C(=O)NC2C(=O)N3C2SC(C)(C)C3C(=O)O)c2ccccc2)C1=O` (stereo not shown) has an MIC of 50 µg/mL (Escherichia coli; broth microdilution; BW25113, Mueller-Hinton broth; with: CCCP 50 µg/mL).
`pneumocandin H` has an MIC of 3.2 µg/mL (Candida glabrata; broth microdilution, resazurin; ATCC 2001; 24 h, 35 °C).
`CCCCCCOc1ccc(CCCCC(=O)C(=O)NCCCC(=O)O)cc1` has an XI(50) of 0.016 mole fraction (PLA2G4A (Homo sapiens, UniProt P47712); enzyme activity, mixed micelle).
`CC1(C)SC2C(NC(=O)C(NC(=O)C3=C(O)CN(c4ccccc4)C3=O)c3ccccc3)C(=O)N2C1C(=O)O` (stereo not shown) gave an MIC of 100 µg/mL (Escherichia coli; broth microdilution; BW25113, Mueller-Hinton broth).
`OC(Cn1cncn1)(Cn1cncn1)c1ccc(F)cc1F` gave an MIC of > 64 µg/mL (Acanthamoeba polyphaga; cell growth, resazurin; 96 h, 28 °C).
For `CC1(C)SC2C(NC(=O)C(NC(=O)C3=C(O)C(Cc4ccccc4)NC3=O)c3ccccc3)C(=O)N2C1C(=O)O` (stereo not shown), the MIC was 50 µg/mL (Acinetobacter baumannii; microbial growth, broth dilution; ATCC19606).
With `C=C(C)[C@@H]1CC[C@]2(C(=O)O)CC[C@]3(C)[C@H](CC[C@@H]4[C@@]5(C)CC[C@H](O)C(C)(C)[C@@H]5CC[C@]43C)[C@@H]12` the MIC was 500 µg/mL (Lodderomyces parapsilosis; microbial growth, broth dilution; ATCC22019; 48 h).

For quick reference, copied from above:
For `C=C(C)[C@@H]1CC[C@]2(C)CC[C@]3(C)[C@H](CC[C@@H]4[C@@]5(C)CC[C@H](O)C(C)(C)[C@@H]5CC[C@]43C)[C@@H]12`, the MIC was 500 µg/mL (Lodderomyces parapsilosis; microbial growth, broth dilution; ATCC22019; 48 h).
The MIC of `pneumocandin A0` is reported as 12.8 µg/mL (Candida parapsilosis; broth microdilution, resazurin; ATCC 90018; 24 h, 35 °C).
`CCCCCCCC(=O)N[C@@H](CCN)C(=O)N[C@@H](CCN)C(=O)N[C@@H](CCN)C(=O)N[C@H](Cc1ccccc1)C(=O)N[C@@H](CC(C)C)C(=O)N[C@@H](CCN)C(=O)N[C@@H](C(=O)N[C@@H](CC(C)C)C(=O)N[C@@H](CCN)C(N)=O)C(C)C` has an MIC of 0.0313 to 0.0625 µg/mL (Acinetobacter baumannii; checkerboard, measured: rifampicin; ATCC 19606; sensitization to antibiotics, with: compound at 4 µg/mL).
`CCCCCCOc1ccc(CCCCC(=O)C(=O)NCCCC(=O)O)cc1` has an XI(50) of 0.016 mole fraction (PLA2G4A (Homo sapiens, UniProt P47712); enzyme activity, mixed micelle).
